Published values of several laboratories.
A part holds a random share of what one study measured. Several values in a cell are separate wells, animals, samples, runs or records.
Chain of UniProt P11362 (whole entry, looked up): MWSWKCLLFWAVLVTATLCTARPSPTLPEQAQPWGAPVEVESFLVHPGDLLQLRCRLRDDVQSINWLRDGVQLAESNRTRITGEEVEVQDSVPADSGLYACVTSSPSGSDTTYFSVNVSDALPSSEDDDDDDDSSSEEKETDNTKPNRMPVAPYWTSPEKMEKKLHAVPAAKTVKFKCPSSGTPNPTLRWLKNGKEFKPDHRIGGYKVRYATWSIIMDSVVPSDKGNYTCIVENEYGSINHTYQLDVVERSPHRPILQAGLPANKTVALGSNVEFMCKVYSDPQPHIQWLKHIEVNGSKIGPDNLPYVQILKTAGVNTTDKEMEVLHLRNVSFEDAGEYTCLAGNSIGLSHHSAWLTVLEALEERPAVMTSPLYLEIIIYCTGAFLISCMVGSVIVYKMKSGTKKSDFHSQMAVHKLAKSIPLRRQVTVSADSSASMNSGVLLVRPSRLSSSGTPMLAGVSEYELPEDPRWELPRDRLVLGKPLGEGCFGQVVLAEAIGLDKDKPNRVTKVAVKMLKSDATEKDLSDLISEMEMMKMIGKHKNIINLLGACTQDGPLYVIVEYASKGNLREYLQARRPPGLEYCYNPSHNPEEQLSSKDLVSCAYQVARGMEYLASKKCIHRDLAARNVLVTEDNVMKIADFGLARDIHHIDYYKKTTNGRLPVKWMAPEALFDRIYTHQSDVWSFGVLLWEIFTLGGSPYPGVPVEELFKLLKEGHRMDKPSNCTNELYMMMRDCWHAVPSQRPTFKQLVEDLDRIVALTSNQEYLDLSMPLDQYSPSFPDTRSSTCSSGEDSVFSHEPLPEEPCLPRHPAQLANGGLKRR
Chain of UniProt Q9NRP7 (whole entry, looked up): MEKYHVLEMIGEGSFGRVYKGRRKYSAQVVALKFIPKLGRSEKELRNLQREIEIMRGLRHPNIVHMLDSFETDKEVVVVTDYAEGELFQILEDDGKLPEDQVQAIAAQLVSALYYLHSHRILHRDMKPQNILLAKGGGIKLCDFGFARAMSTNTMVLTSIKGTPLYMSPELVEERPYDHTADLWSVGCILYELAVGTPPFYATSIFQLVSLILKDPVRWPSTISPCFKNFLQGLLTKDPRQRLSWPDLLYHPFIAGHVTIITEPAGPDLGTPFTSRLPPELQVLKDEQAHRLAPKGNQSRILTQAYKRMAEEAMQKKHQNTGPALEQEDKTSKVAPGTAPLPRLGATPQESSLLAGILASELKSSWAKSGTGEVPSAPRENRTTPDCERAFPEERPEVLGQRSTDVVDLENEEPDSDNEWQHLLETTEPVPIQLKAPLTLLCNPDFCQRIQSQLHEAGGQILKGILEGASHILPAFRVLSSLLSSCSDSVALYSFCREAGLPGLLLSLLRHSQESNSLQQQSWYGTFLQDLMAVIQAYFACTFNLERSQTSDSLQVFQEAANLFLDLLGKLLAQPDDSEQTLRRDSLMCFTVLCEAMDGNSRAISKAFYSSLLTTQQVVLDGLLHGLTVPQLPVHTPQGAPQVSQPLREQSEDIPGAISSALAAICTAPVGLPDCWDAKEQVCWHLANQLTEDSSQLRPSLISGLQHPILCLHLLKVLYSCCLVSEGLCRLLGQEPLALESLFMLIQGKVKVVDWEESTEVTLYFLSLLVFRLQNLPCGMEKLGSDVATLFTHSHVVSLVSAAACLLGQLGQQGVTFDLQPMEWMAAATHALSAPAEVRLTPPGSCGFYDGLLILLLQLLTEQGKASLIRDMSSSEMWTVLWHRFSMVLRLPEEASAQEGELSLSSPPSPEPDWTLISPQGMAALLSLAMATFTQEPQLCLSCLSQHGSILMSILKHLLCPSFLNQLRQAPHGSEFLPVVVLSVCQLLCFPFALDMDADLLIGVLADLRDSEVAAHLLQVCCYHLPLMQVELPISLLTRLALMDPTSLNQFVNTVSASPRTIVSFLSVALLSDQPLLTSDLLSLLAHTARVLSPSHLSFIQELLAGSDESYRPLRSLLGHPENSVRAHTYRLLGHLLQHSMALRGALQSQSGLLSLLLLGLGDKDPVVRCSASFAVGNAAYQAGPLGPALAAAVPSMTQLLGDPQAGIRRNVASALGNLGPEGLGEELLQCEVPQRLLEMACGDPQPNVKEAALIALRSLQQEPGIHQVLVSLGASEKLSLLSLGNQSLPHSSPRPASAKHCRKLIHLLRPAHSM

Sample 1
SMILES: Cc1nccc(COC(=O)N2C[C@@H]3[C@@H](CNC(=O)c4ccc5[nH]nnc5c4)[C@@H]3C2)n1
Effect on: cell-free assay
Technique: competition with immobilised ligand
Tested at: 1 µM
target | remaining binding
Dual specificity mitogen-activated protein kinase kinase 4 (MAP2K4, Homo sapiens, UniProt P45985) | 100%
Aurora kinase C (AURKC, Homo sapiens, UniProt Q9UQB9) | 100%
Serine/threonine-protein kinase haspin (HASPIN, Homo sapiens, UniProt Q8TF76) | 91%
Phosphatidylinositol 4,5-bisphosphate 3-kinase catalytic subunit alpha isoform (PIK3CA, Homo sapiens, UniProt P42336, Q546K) | 85%
Mitogen-activated protein kinase 11 (MAPK11, Homo sapiens, UniProt Q15759) | 94%
Mitogen-activated protein kinase kinase kinase kinase 2 (MAP4K2, Homo sapiens, UniProt Q12851) | 84%
Epidermal growth factor receptor (EGFR, Homo sapiens, UniProt P00533, del746-750) | 100%
Fibroblast growth factor receptor 1 (FGFR1, Homo sapiens, UniProt P11362) | 91%
Bone morphogenetic protein receptor type-1B (BMPR1B, Homo sapiens, UniProt O00238) | 100%
LIM domain kinase 2 (LIMK2, Homo sapiens, UniProt P53671) | 92%
Serine/threonine-protein kinase 32C (STK32C, Homo sapiens, UniProt Q86UX6) | 95%
Cyclin-dependent kinase 13 (CDK13, Homo sapiens, UniProt Q14004) | 82%
Ephrin type-A receptor 7 (EPHA7, Homo sapiens, UniProt Q15375) | 89%
Glycogen synthase kinase-3 beta (GSK3B, Homo sapiens, UniProt P49841) | 100%
Maternal embryonic leucine zipper kinase (MELK, Homo sapiens, UniProt Q14680) | 100%
Serine/threonine-protein kinase 36 (STK36, Homo sapiens, UniProt Q9NRP7) | 92%
Ribosomal protein S6 kinase alpha-4, N-terminal kinase domain (RPS6KA4, Homo sapiens, UniProt O75676) | 100%

Sample 2
Target: Bromodomain-containing protein 4, BD1 (BRD4, Homo sapiens, UniProt O60885)
Tested at: 50 µM
SMILES | inhibition [%]
Cc1cccc(-c2nn3c(c2-c2ccnc4ccc(C(N)=O)cc24)CCC3)n1 | 34.5
CN1CCC(Nc2ncc3ncnc(Nc4ccc(F)c(Cl)c4)c3n2)CC1 | -2.75
CNC(=O)c1cc(Oc2ccc(NC(=O)Nc3ccc(Cl)c(C(F)(F)F)c3)c(F)c2)ccn1 | -5.1
CC(C)[C@H](CO)Nc1nc(Nc2ccc(C(=O)O)c(Cl)c2)c2ncn(C(C)C)c2n1 | 9.25
COc1ccc(Cl)c(Nc2nc3ccccc3nc2NS(=O)(=O)c2cccc(NC(=O)C(C)(C)N)c2)c1 | -25
COc1cc(Nc2ncc(F)c(Nc3ccc4c(n3)NC(=O)C(C)(C)O4)n2)cc(OC)c1OC | 23.2
COc1cc2c(N3CCN(C(=O)Nc4ccc(OC(C)C)cc4)CC3)ncnc2cc1OCCCN1CCCCC1 | 24.1
Cc1ccc(Nc2nccc(N(C)c3ccc4c(C)n(C)nc4c3)n2)cc1S(N)(=O)=O | 24.9
CN1CCN(c2nc(C3=C(c4c[nH]c5ccccc45)C(=O)NC3=O)c3ccccc3n2)CC1 | 73.9
CC1(C)CNc2cc(NC(=O)c3cccnc3NCc3ccncc3)ccc21 | 52.8

Sample 3
Target: Eukaryotic initiation factor 4A-III (Homo sapiens, UniProt P38919)
Chain of UniProt P38919 (whole entry, looked up): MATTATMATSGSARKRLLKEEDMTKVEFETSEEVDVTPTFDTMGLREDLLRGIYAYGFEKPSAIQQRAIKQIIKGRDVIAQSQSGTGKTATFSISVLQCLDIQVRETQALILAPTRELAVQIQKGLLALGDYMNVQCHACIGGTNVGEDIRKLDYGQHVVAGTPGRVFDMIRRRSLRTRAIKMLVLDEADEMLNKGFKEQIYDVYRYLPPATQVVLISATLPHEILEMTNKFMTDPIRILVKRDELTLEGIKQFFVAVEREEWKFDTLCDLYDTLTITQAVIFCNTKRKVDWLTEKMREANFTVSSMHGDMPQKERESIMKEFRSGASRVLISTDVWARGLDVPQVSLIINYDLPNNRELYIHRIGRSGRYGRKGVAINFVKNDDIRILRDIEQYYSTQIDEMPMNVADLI
Effect on: RNA clamping
Technique: fluorescence polarization
Tested at: concentration not given
Added: FAM-labelled poly r(AG)8 RNA
Structure (SMILES) | fluorescence polarization change
COc1ccc([C@]23Oc4cc(OC)cc(OC)c4[C@@]4(O[C@@H]5CCCN5C(=O)[C@@H]4[C@H]2c2ccccc2)[C@@H]3O)cc1 | -7 mP
COC(=O)[C@H]1[C@@H](O)[C@@]2(O)c3c(OC)cc(OS(=O)(=O)c4ccc(C)cc4)cc3O[C@@]2(c2ccc(Br)cc2)[C@@H]1c1ccccc1 | 4.3 mP and 9.2 mP
COc1ccc([C@@]23Oc4cc(OC)cc(OC)c4[C@]2(O)[C@H](O)[C@H](C(=O)c2ccccc2)[C@H]3c2ccccc2)cc1 | 5.3 mP
COC(=O)[C@H]1[C@@H](O)[C@@]2(O)c3c(F)cccc3N(C)[C@@]2(c2ccc(OC)cc2)[C@@H]1c1ccccc1 | -0.6 mP
COC(=O)[C@@H]1[C@@H](c2ccccc2)[C@]2(c3ccc(OC)cc3)Oc3cc(OC)cc(OC)c3[C@@]23NC(c2ccc(N(C)C)cc2)=N[C@@]13O | 16.2 mP
CCCCN[C@@]12C(=O)[C@H](C(=O)OC)[C@@H](c3ccccc3)[C@]1(c1ccc(OC)cc1)Oc1cc(OC)cc(OC)c12 | 14.4 mP
COCCN[C@@]12c3nc(-c4ccccc4)[nH]c(=O)c3[C@@H](c3ccccc3)[C@]1(c1ccc(OC)cc1)Oc1cc(OC)cc(OC)c12 | 5.9 mP
C#CCN[C@@]12C(=O)[C@H](C(=O)OC)[C@@H](c3ccccc3)[C@]1(c1ccc(OC)cc1)Oc1cc(OC)cc(OC)c12 | 5.6 mP
C#CCOc1nc(-c2ccccc2)nc2c1[C@@H](c1ccccc1)[C@]1(c3ccc(OC)cc3)Oc3cc(OCC(=O)OCC)cc(OC)c3[C@]21OCC(=O)OCC | 11.7 mP
COC(=O)[C@@H]1[C@@H](c2ccccc2)[C@]2(c3ccc(OC)cc3)Oc3cc(OC)cc(OC)c3[C@@]23OC(Cc2ccccc2)=N[C@@]13O | 8.8 mP
COc1ccc([C@@]23Oc4cc(OC)cc(OC)c4[C@]2(O)[C@H](O)[C@H](C(=O)c2ccco2)[C@H]3c2ccccc2OC)cc1 | 24.2 mP
COC(=O)[C@H]1[C@@H](O)[C@@]2(O)c3c(OC)cc(OCc4ccccc4)cc3O[C@@]2(c2ccc(OC)cc2)[C@@H]1c1ccccc1 | 0.7 mP
COC(=O)CCCn1c(-c2ccccc2)nc2c(c1=O)[C@@H](c1ccccc1)[C@]1(c3ccc(OC)cc3)Oc3cc(OC)cc(OC)c3[C@]21O | 11 mP

Sample 4
Target: DNA polymerase theta, ATPase domain (POLQ, Homo sapiens, UniProt O75417)
Chain of UniProt O75417 (whole entry, unmodified, looked up): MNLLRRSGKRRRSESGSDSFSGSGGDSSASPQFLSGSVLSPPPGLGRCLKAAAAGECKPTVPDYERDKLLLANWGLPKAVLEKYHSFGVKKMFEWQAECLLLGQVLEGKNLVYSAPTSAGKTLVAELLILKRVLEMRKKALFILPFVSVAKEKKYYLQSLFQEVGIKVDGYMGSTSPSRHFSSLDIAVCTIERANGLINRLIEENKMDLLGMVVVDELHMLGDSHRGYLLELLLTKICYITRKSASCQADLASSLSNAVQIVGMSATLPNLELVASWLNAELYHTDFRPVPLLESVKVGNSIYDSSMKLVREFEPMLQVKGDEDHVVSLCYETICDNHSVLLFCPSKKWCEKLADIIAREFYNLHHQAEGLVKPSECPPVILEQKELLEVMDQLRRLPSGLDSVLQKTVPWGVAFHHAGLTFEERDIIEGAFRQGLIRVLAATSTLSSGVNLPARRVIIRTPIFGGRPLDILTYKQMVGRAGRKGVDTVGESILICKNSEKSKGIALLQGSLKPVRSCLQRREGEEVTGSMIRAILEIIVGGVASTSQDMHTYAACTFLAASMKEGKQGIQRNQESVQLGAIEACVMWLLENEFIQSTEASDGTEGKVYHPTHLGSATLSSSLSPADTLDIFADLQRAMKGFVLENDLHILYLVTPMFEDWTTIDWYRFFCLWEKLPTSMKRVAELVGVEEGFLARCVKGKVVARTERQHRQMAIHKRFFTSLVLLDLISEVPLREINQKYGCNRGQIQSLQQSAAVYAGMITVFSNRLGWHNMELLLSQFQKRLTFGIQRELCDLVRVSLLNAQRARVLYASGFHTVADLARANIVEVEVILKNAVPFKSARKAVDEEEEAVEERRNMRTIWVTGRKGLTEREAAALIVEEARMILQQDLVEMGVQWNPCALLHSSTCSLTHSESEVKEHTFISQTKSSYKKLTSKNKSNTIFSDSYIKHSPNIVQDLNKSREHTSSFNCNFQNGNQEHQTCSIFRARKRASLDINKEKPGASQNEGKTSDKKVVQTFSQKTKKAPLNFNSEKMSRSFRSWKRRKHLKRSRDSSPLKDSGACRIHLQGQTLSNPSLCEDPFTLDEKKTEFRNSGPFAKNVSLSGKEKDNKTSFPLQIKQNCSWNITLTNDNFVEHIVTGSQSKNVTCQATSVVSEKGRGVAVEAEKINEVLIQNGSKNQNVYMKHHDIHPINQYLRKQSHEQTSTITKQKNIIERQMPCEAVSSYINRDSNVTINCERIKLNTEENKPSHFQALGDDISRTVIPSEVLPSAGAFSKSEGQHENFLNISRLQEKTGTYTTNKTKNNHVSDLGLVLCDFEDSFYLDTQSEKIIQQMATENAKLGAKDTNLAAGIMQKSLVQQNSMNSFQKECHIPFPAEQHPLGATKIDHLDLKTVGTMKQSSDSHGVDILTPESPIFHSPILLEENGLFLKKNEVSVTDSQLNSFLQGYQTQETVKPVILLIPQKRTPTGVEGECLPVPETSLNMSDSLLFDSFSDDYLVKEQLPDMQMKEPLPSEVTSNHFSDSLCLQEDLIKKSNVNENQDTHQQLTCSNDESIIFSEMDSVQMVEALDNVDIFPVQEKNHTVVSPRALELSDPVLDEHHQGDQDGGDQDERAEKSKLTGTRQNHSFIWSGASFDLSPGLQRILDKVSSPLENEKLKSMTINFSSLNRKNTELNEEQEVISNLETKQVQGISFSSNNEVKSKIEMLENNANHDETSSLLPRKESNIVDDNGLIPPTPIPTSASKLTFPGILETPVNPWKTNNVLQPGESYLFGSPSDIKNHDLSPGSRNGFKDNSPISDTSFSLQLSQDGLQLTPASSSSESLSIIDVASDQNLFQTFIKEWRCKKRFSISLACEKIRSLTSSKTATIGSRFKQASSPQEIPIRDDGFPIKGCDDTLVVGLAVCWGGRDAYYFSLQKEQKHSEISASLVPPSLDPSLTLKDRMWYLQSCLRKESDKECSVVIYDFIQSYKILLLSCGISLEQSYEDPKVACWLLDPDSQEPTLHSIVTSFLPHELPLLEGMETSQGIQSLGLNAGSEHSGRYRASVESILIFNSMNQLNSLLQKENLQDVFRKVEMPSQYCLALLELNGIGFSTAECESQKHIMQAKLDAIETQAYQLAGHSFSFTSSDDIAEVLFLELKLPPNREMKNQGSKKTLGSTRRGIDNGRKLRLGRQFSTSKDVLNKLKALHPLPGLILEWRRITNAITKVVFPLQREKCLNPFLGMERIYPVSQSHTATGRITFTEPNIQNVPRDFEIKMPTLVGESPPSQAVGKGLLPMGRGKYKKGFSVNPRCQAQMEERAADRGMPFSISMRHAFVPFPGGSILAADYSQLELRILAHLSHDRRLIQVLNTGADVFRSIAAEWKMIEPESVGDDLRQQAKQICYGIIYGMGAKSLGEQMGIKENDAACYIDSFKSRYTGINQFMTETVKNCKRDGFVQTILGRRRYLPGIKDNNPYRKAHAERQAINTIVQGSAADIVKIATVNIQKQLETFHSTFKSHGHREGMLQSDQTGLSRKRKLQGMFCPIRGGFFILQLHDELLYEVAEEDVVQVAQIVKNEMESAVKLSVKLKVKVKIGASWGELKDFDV
Effect on: enzyme activity
Mode: inhibitor
Tested at: 77 µM
Reference: untreated
Structure (SMILES) | remaining activity
CCCCc1c(-c2ccc(OC)cc2)[nH]c2nccnc12 | 82.4%
CCOc1cc(N)c(Cl)cc1C(=O)NCC1CN(Cc2ccc(F)cc2)CCO1 (centres unmarked) | 91.4%
COC(=O)Nc1nc2cc(Sc3ccccc3)ccc2[nH]1 | 99.7% and 94.3%
OC[C@H]1O[C@@H](n2cnc3c(N[C@H]4CCC[C@@H]4O)ncnc32)[C@H](O)[C@@H]1O | 115%
Cc1ccc(C(=O)C(C)CN2CCCCC2)cc1 (centres unmarked) | 107%
O=C(CCCS)NC1CCN(C(=O)COc2ccc(Cl)cc2Cl)CC1 | 102%
C=CCc1cc(OC)c(O)c(C(=O)NCCO)c1 | 96%
Nc1ncnc2c1ncn2[C@@H]1O[C@H](COP(=O)(O)O)[C@@H](O)[C@H]1O | 99.7%
Nc1ccc(S(=O)(=O)Nc2ccnn2-c2ccccc2)cc1 | 90.5%
NCc1c[nH]c(=S)n1[C@@H]1CCc2c(F)cc(F)cc2C1 | 102%
Nc1nccc2c1ncn2[C@@H]1C=C(CO)[C@@H](O)[C@H]1O | 105%
Cc1ccc(NC(=O)C2(c3ccc4c(c3)OC(F)(F)O4)CC2)nc1-c1cccc(C(=O)O)c1 | 96.6%
CC(C)(C)Cn1c(N)nc2ccc(-c3[nH]c(C(C)(C)C)nc3-c3ccc(F)cc3)nc21 | 102%

Excerpt of the above (sample 2):
SMILES | inhibition [%]
CN1CCC(Nc2ncc3ncnc(Nc4ccc(F)c(Cl)c4)c3n2)CC1 | -2.75
CNC(=O)c1cc(Oc2ccc(NC(=O)Nc3ccc(Cl)c(C(F)(F)F)c3)c(F)c2)ccn1 | -5.1
CC(C)[C@H](CO)Nc1nc(Nc2ccc(C(=O)O)c(Cl)c2)c2ncn(C(C)C)c2n1 | 9.25
COc1ccc(Cl)c(Nc2nc3ccccc3nc2NS(=O)(=O)c2cccc(NC(=O)C(C)(C)N)c2)c1 | -25
COc1cc(Nc2ncc(F)c(Nc3ccc4c(n3)NC(=O)C(C)(C)O4)n2)cc(OC)c1OC | 23.2
COc1cc2c(N3CCN(C(=O)Nc4ccc(OC(C)C)cc4)CC3)ncnc2cc1OCCCN1CCCCC1 | 24.1
Cc1ccc(Nc2nccc(N(C)c3ccc4c(C)n(C)nc4c3)n2)cc1S(N)(=O)=O | 24.9
CN1CCN(c2nc(C3=C(c4c[nH]c5ccccc45)C(=O)NC3=O)c3ccccc3n2)CC1 | 73.9
